{"data": "Published values from different studies", "note": "Numbered parts are unrelated; each lists some results of a single study. “And” joins repeats or separate records; there may be more than shown.", "chain of UniProt Q13464 (whole entry, looked up)": "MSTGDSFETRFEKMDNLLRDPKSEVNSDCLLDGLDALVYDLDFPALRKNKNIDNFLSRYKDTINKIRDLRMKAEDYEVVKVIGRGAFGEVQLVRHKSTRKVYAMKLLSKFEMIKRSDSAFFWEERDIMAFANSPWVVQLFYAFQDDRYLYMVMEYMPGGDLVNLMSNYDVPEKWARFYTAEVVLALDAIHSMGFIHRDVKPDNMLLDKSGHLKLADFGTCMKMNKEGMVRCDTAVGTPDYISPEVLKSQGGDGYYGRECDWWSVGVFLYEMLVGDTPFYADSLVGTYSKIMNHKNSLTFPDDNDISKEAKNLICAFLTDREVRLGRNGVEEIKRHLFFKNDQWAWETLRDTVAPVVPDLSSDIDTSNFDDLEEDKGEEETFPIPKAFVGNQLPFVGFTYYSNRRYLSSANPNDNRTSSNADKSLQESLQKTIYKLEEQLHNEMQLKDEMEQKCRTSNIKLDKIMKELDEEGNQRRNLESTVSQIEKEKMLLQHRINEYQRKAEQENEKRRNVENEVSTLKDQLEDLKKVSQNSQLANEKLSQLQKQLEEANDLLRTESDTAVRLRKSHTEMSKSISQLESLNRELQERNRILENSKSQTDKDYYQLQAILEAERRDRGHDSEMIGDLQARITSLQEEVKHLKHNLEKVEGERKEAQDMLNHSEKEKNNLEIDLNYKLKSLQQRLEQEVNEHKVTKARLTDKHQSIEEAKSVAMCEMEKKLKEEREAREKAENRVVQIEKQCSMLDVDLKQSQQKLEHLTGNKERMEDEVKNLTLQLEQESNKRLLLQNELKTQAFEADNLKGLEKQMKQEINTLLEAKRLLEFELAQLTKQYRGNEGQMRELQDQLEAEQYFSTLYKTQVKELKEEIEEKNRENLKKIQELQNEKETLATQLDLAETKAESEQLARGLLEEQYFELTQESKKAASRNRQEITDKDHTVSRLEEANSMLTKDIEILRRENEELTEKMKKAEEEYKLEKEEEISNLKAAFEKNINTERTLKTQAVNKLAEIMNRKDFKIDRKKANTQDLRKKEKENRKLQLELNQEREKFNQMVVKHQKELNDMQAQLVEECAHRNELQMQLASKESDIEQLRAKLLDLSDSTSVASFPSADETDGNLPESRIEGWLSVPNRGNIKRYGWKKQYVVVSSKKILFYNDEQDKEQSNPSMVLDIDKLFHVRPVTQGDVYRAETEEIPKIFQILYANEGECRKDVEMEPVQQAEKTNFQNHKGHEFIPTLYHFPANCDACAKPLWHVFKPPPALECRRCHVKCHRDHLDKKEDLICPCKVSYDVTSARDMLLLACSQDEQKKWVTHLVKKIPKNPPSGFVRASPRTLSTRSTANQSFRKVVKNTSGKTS", "chain of UniProt Q00535 (whole entry, looked up)": "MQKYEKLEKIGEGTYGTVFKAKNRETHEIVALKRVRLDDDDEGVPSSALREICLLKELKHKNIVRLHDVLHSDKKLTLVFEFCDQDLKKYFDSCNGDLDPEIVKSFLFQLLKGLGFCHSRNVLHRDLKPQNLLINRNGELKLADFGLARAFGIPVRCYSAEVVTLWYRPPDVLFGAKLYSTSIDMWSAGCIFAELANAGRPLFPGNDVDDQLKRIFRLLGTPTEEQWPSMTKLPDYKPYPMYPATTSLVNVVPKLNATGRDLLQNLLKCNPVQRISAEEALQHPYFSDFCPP", "chain of UniProt Q15759 (whole entry, looked up)": "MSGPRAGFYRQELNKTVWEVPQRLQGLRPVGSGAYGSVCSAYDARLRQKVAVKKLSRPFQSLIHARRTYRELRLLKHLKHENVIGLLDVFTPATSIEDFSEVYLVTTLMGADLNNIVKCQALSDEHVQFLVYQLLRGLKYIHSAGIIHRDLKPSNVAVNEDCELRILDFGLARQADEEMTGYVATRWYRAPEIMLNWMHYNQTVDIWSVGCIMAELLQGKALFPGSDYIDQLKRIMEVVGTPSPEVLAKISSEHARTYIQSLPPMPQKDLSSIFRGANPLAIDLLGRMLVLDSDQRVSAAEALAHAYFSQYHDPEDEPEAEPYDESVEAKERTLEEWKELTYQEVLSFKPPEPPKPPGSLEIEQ"}
{"data": "Set 1", "target": "DNA polymerase theta, ATPase domain (POLQ, Homo sapiens, UniProt O75417)", "effect on": "enzyme activity", "action": "inhibitor", "tested at": "77 µM", "relative to": "untreated", "chain of UniProt O75417 (whole entry, unmodified, looked up)": "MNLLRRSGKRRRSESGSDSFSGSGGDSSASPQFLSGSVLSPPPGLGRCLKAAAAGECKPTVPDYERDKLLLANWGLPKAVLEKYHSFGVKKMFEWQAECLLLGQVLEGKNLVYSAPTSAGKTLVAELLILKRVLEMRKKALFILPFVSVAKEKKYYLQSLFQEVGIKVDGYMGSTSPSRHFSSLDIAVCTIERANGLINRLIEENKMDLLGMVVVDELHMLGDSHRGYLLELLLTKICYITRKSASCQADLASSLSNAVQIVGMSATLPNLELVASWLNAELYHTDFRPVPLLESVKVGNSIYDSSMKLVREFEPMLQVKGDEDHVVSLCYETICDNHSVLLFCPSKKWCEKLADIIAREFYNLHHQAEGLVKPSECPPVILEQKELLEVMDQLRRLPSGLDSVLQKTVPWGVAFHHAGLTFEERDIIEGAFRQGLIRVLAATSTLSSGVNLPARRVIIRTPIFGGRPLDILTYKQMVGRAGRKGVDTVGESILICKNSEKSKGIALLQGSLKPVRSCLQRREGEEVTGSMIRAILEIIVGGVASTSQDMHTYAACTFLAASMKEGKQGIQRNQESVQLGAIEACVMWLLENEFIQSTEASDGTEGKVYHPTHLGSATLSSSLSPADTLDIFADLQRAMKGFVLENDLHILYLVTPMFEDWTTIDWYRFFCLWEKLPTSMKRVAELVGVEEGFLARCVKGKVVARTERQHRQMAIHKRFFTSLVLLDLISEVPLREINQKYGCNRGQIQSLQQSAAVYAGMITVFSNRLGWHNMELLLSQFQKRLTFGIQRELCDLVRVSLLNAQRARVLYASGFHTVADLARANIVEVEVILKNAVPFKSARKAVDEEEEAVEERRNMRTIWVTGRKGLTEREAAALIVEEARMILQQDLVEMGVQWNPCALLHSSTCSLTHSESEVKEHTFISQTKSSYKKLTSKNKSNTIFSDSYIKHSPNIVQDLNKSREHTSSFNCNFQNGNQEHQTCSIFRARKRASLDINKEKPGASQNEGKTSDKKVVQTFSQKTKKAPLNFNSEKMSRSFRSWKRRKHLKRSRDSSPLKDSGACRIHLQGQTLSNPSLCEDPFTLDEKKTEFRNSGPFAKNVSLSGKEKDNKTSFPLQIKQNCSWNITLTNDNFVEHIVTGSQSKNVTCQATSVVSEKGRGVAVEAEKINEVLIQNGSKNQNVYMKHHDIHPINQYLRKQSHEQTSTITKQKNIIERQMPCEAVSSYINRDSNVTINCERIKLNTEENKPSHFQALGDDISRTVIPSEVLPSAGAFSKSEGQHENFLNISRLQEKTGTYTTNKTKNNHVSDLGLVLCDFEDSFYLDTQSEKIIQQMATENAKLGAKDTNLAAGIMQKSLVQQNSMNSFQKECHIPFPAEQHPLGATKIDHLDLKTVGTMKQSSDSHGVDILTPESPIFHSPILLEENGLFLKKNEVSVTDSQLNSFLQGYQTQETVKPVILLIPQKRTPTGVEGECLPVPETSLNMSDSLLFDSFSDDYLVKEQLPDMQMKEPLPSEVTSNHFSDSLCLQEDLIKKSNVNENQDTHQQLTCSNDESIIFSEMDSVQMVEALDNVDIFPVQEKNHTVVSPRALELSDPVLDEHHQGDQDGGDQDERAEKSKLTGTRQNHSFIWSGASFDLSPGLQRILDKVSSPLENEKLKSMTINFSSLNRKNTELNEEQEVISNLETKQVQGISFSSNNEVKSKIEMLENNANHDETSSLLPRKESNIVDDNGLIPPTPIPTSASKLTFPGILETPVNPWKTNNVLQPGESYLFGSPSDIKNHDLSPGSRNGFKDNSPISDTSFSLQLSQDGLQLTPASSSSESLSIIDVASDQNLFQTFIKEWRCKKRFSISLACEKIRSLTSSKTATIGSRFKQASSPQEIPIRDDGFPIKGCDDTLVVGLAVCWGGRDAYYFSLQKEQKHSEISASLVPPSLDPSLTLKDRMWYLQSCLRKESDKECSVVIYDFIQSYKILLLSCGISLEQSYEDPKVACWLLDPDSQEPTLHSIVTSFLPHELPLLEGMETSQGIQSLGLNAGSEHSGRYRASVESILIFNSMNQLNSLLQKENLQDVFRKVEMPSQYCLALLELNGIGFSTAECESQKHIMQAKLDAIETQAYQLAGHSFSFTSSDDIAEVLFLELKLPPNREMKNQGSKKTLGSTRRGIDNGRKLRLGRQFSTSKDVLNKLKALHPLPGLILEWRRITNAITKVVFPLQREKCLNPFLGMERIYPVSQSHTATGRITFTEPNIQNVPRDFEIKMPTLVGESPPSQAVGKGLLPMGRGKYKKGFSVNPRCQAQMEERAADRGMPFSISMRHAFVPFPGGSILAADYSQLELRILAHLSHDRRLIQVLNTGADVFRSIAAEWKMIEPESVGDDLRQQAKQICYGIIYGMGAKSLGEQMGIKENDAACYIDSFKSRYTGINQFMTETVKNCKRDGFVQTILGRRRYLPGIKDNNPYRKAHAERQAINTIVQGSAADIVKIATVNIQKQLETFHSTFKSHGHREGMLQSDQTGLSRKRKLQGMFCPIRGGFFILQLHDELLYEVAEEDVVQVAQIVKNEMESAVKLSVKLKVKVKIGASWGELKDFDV"}
{"SMILES": "Cn1c(=O)c2[nH]c(-c3ccc(S(=O)(=O)O)cc3)nc2n(C)c1=O", "remaining activity": "94.4%"}
{"SMILES": "N=C(N)SCCN", "remaining activity": "96.2%"}
{"SMILES": "CC(=O)Nc1ccc([C@H](C)C(=O)Nc2ncc(C(C)C)s2)cc1", "remaining activity": "111% and 106% and 107%"}
{"SMILES": "C[C@]1(O)C[C@@H](c2nc(-c3ccc4ccc(-c5ccccc5)nc4c3)c3c(N)nccn32)C1", "remaining activity": "98.1%"}
{"SMILES": "O=C(O)c1cccnc1Nc1cccc(C(F)(F)F)c1", "remaining activity": "72.3%"}
{"SMILES": "COc1ccc2cccc(CCNC(C)=O)c2c1", "remaining activity": "107%"}
{"SMILES": "CC1=CC(=O)NS(=O)(=O)O1", "remaining activity": "91.3%"}
{"SMILES": "CCOC(=O)c1cnc2c(cnn2CC)c1NN=C(C)C", "remaining activity": "101%"}
{"SMILES": "CC(=O)O[C@]1(C(C)=O)CC[C@H]2[C@@H]3C[C@H](C)C4=CC(=O)CC[C@]4(C)[C@H]3CC[C@@]21C", "remaining activity": "102%"}
{"SMILES": "CCCCCOC(=O)Nc1nc(=O)n([C@@H]2O[C@H](C)[C@@H](O)[C@H]2O)cc1F", "remaining activity": "104%"}
{"SMILES": "Cc1cc(/C=C2/SC(=S)NC2=O)c(C)n1-c1cccnc1", "remaining activity": "91.1%"}
{"SMILES": "CCCCN(CCCC)CCC(O)c1cc2c(Cl)cc(Cl)cc2c2cc(C(F)(F)F)ccc12 (stereo not shown)", "remaining activity": "87.2%"}
{"data": "Set 2", "target": "Eukaryotic initiation factor 4A-I (EIF4A1, Homo sapiens, UniProt P60842)", "effect on": "RNA clamping", "technique": "fluorescence polarization", "tested at": "concentration not given", "setting": "mean of two replicates", "added": "FAM-labelled poly r(AG)8 RNA", "chain of UniProt P60842 (whole entry, looked up)": "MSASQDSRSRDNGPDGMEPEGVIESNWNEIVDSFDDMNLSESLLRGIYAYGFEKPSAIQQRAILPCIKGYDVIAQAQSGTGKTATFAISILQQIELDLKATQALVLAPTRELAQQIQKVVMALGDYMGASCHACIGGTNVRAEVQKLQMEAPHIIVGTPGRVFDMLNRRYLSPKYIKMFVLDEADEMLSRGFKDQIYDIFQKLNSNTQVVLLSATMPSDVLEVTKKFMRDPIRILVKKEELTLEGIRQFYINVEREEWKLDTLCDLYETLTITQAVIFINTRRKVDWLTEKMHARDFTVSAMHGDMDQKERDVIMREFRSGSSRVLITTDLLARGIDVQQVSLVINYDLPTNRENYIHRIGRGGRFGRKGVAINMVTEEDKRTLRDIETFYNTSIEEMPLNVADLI"}
{"SMILES": "C=CCn1c(-c2ccccc2)nc2c(c1=O)[C@@H](c1ccccc1)[C@]1(c3ccc(OC)cc3)Oc3cc(OC)cc(OC)c3[C@]21O", "fluorescence polarization change [mP]": 22.2}
{"SMILES": "C#CCOc1ccc(-c2nc(OCC#C)c3c(n2)[C@@]2(O)c4c(OC)cc(OC)cc4O[C@@]2(c2ccc(OC)cc2)[C@@H]3c2ccccc2)cc1", "fluorescence polarization change [mP]": -6.5}
{"SMILES": "CCCc1ccc(C(=O)[C@H]2[C@@H](O)[C@@]3(O)c4c(OC)cc(OC)cc4O[C@@]3(c3ccc(OC)cc3)[C@@H]2c2ccccc2)o1", "fluorescence polarization change [mP]": 9.6}
{"SMILES": "COc1ccc([C@@]23Oc4cc(OC)cc(OC)c4[C@]2(O)C=C(C(=O)c2ccco2)[C@H]3c2ccccc2)cc1", "fluorescence polarization change [mP]": 33}
{"SMILES": "COc1ccc([C@]23Oc4cc(OC)cc(OC)c4[C@@]4(O[C@@H]5CCCN5C(=O)[C@@H]4[C@H]2c2ccccc2)[C@@H]3O)cc1", "fluorescence polarization change [mP]": -8.3}
{"SMILES": "COc1cc(OC)c2c(c1)O[C@@]1(c3ccc(OC)c(O)c3)[C@H](c3ccccc3)[C@@H](C(=O)c3ccco3)[C@@H](O)[C@@]21O", "fluorescence polarization change [mP]": 9.1}
{"SMILES": "C#CCNC(=O)COc1cc(OC)c2c(c1)O[C@@]1(c3ccc(OC)cc3)[C@H](c3ccccc3)c3c(nc(-c4ccccc4)[nH]c3=O)[C@@]21O", "fluorescence polarization change [mP]": 5.7}
{"SMILES": "COc1ccc([C@@]23Oc4cc(OC)cc(OC)c4[C@]2(O)[C@H](O)[C@H](C(=O)c2cc(C)c(C)o2)[C@H]3c2ccccc2)cc1", "fluorescence polarization change [mP]": 15.4}
{"SMILES": "COc1ccc([C@@]23Oc4cc(OC)cc(OC)c4[C@]2(O)C2=C(C(=O)N4CCC[C@H]4O2)[C@H]3c2ccccc2)cc1", "fluorescence polarization change [mP]": 51.6}
{"SMILES": "COc1ccc([C@@]23Oc4cc(OC)cc(OC)c4[C@@](O)(C2=O)[C@H](C(=O)N(C)OC)[C@H]3c2ccccc2)cc1", "fluorescence polarization change [mP]": 6.4}
{"data": "Set 3", "SMILES": "O=C(O)[C@@H]1[C@@H](Cn2nnc3ccccc3c2=O)CC[C@H]1C(=O)c1ccc(OCCC2CCOCC2)cc1", "effect on": "cell-free assay", "technique": "competition with immobilised ligand", "tested at": "1 µM"}
{"target": "Phosphatidylinositol 4-phosphate 5-kinase type-1 alpha (PIP5K1A, Homo sapiens, UniProt Q99755)", "remaining binding [%]": 94}
{"target": "Casein kinase I isoform alpha-like (CSNK1A1L, Homo sapiens, UniProt Q8N752)", "remaining binding [%]": 100}
{"target": "Cyclin-dependent kinase 15 (CDK15, Homo sapiens, UniProt Q96Q40)", "remaining binding [%]": 100}
{"target": "Serine/threonine-protein kinase 38 (STK38, Homo sapiens, UniProt Q15208)", "remaining binding [%]": 95}
{"target": "Serine/threonine-protein kinase Nek2 (NEK2, Homo sapiens, UniProt P51955)", "remaining binding [%]": 100}
{"target": "Mitogen-activated protein kinase 7 (MAPK7, Homo sapiens, UniProt Q13164)", "remaining binding [%]": 100}
{"target": "Dual specificity protein kinase CLK2 (CLK2, Homo sapiens, UniProt P49760)", "remaining binding [%]": 100}
{"target": "Phosphatidylinositol 4-phosphate 5-kinase type-1 gamma (PIP5K1C, Homo sapiens, UniProt O60331)", "remaining binding [%]": 100}
{"target": "Protein kinase C theta type (PRKCQ, Homo sapiens, UniProt Q04759)", "remaining binding [%]": 85}
{"target": "Rho-associated protein kinase 1 (ROCK1, Homo sapiens, UniProt Q13464)", "remaining binding [%]": 84}
{"target": "Serine/threonine-protein kinase DCLK2 (DCLK2, Homo sapiens, UniProt Q8N568)", "remaining binding [%]": 87}
{"target": "Cyclin-dependent kinase 5 (CDK5, Homo sapiens, UniProt Q00535)", "remaining binding [%]": 81}
{"target": "Aurora kinase B (AURKB, Homo sapiens, UniProt Q96GD4)", "remaining binding [%]": 100}
{"target": "Tyrosine-protein kinase ABL1, non-phosphorylated (ABL1, Homo sapiens, UniProt P00519)", "remaining binding [%]": 95}
{"data": "Set 4", "Compound": "O=C1NC(=O)c2c1c1c3ccccc3[nH]c1n1cncc21", "effect on": "enzyme activity", "action": "inhibitor", "tested at": "0.5 µM", "relative to": "control"}
{"target": "Rho-associated protein kinase 1 (ROCK1, Homo sapiens, UniProt Q13464)", "remaining activity [%]": 95.9}
{"target": "Calcium/calmodulin-dependent protein kinase type IV (CAMK4, Homo sapiens, UniProt Q16566)", "remaining activity [%]": 89.8}
{"target": "RAC-beta serine/threonine-protein kinase (AKT2, Homo sapiens, UniProt P31751)", "remaining activity [%]": 121}
{"target": "Misshapen-like kinase 1 (MINK1, Homo sapiens, UniProt Q8N4C8)", "remaining activity [%]": 48.2}
{"target": "Hepatocyte growth factor receptor (MET, Homo sapiens, UniProt P08581)", "remaining activity [%]": 93.4}
{"target": "Tyrosine-protein kinase TXK (TXK, Homo sapiens, UniProt P42681)", "remaining activity [%]": 76.4}
{"target": "cGMP-dependent protein kinase 2 (PRKG2, Homo sapiens, UniProt Q13237)", "remaining activity [%]": 64.1}
{"target": "Serine/threonine-protein kinase MRCK beta (CDC42BPB, Homo sapiens, UniProt Q9Y5S2)", "remaining activity [%]": 94.8}
{"target": "Mitogen-activated protein kinase 11 (MAPK11, Homo sapiens, UniProt Q15759)", "remaining activity [%]": 94.5}
{"target": "Ribosomal protein S6 kinase alpha-4 (RPS6KA4, Homo sapiens, UniProt O75676)", "remaining activity [%]": 61.3}
{"target": "Mitogen-activated protein kinase 14 (MAPK14, Homo sapiens, UniProt Q16539)", "remaining activity [%]": 101}
{"target": "Mitogen-activated protein kinase 1 (MAPK1, Homo sapiens, UniProt P28482)", "remaining activity [%]": 125}
{"target": "Serine/threonine-protein kinase PLK3 (PLK3, Homo sapiens, UniProt Q9H4B4)", "remaining activity [%]": 48.2}
{"note": "Repeated from above (set 3):"}
{"target": "Tyrosine-protein kinase ABL1, non-phosphorylated (ABL1, Homo sapiens, UniProt P00519)", "remaining binding [%]": 95}
{"target": "Protein kinase C theta type (PRKCQ, Homo sapiens, UniProt Q04759)", "remaining binding [%]": 85}
{"target": "Rho-associated protein kinase 1 (ROCK1, Homo sapiens, UniProt Q13464)", "remaining binding [%]": 84}
{"target": "Phosphatidylinositol 4-phosphate 5-kinase type-1 alpha (PIP5K1A, Homo sapiens, UniProt Q99755)", "remaining binding [%]": 94}
{"target": "Cyclin-dependent kinase 5 (CDK5, Homo sapiens, UniProt Q00535)", "remaining binding [%]": 81}
